Experimental data of several laboratories.
± marks the error that the study gave.
Chain of UniProt P08684 (whole entry, looked up): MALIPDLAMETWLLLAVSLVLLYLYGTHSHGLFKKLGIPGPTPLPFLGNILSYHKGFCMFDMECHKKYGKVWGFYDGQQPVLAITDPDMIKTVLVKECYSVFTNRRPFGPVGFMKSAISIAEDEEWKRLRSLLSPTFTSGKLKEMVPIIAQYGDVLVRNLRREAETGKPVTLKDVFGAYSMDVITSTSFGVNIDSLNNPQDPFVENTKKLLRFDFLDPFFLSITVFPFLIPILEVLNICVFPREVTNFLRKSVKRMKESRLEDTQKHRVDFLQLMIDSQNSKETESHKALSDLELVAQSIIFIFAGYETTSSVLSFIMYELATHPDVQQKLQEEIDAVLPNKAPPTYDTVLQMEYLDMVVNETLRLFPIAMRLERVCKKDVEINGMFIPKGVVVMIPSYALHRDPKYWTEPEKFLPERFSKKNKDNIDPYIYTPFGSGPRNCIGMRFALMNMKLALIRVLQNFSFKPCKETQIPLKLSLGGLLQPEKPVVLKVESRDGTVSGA

For N#Cc1c(Nc2ccc(F)cc2)n[nH]c1NS(=O)(=O)c1ccc2ccccc2c1, the EC50 was over 1.1 µM (Powassan virus; viral replication; BHK-21, LB).
O=c1ccn([C@@H]2O[C@](F)(CO)[C@@H](O)[C@H]2O)c(=O)[nH]1 gave an EC50 of 1.47 µM (Mammarenavirus lassaense; viral replication; Huh-7).
The inhibition of Nc1ncnc2c([C@@H]3N[C@H](CO)[C@@H](O)[C@H]3O)c[nH]c12 is reported as 0% (Zaire ebolavirus; viral replication, inhibitor; human Macrophage; 12.5 µM).
The EC50 of CCn1cc(-c2ccnc3[nH]c(-c4cccc(CN(C)C)c4)cc23)c(-c2ccc(NC(=O)N(C)C)cc2)n1 is reported as over 100 µM (SARS-CoV-2; viral replication, high-content imaging screen; cell-based).
O=C(NCC1CCOC2(CCN(C(=O)C3(c4ccccc4)CCCC3)CC2)C1)C1CCCCC1 (stereo not drawn) gave an EC50 of 25.1 µM (Venezuelan equine encephalitis virus; viral replication).
The efficacy of Cc1oc(-c2cccc(Cl)c2)nc1CN1CCCC(C(=O)NCCc2ccc(Cl)cc2)C1 (stereo not drawn) is reported as 49.9% (SARS-CoV-2; cytopathic effect; USA_WA1/2020; round 1, 5-point).
O=C(N1CCC2(CC1)CC(CNS(=O)(=O)CCCCl)CCO2)C1(c2ccccc2)CCCC1 (stereo not drawn) gave an EC50 of 10 µM (Venezuelan equine encephalitis virus; viral replication).
For CC(C)(C)[C@H](NC(=O)C(F)(F)F)C(=O)N1C[C@H]2[C@@H]([C@H]1C(=O)N[C@H](C#N)C[C@@H]1CCNC1=O)C2(C)C, “participants with adverse events” read 0% (human, fasted; oral, 150 mg single dose, 28 days, no ritonavir).
Under “treatment-emergent ADA positive subjects”, CC[C@H](C)[C@H](NC(=O)[C@H](CC(C)C)NC(=O)[C@H](Cc1c[nH]c2ccccc12)NC(=O)[C@H](CCC(N)=O)NC(=O)[C@@H](NC(=O)[C@H](Cc1ccccc1)NC(=O)[C@H](C)NC(=O)[C@H](CCCCNC(=O)COCCOCCNC(=O)COCCOCCNC(=O)CC[C@H](NC(=O)CCCCCCCCCCCCCCCCCCC(=O)O)C(=O)O)NC(=O)[C@H](CCC(N)=O)NC(=O)[C@H](C)NC(=O)[C@@H](NC(=O)[C@H](CCCCN)NC(=O)[C@H](CC(=O)O)NC(=O)[C@H](CC(C)C)NC(=O)C(C)(C)NC(=O)[C@@H](NC(=O)[C@H](CO)NC(=O)[C@H](Cc1ccc(O)cc1)NC(=O)[C@H](CC(=O)O)NC(=O)[C@H](CO)NC(=O)[C@@H](NC(=O)[C@H](Cc1ccccc1)NC(=O)[C@@H](NC(=O)CNC(=O)[C@H](CCC(=O)O)NC(=O)C(C)(C)NC(=O)[C@@H](N)Cc1ccc(O)cc1)[C@@H](C)O)[C@@H](C)O)[C@@H](C)CC)[C@@H](C)CC)C(C)C)C(=O)N[C@@H](C)C(=O)NCC(=O)NCC(=O)N1CCC[C@H]1C(=O)N[C@@H](CO)C(=O)N[C@@H](CO)C(=O)NCC(=O)N[C@@H](C)C(=O)N1CCC[C@H]1C(=O)N1CCC[C@H]1C(=O)N1CCC[C@H]1C(=O)N[C@@H](CO)C(N)=O is recorded as 0% (healthy subjects, single ascending dose; 0.25 mg, postbaseline).
COc1ccc(NC(=O)NCC2CCOC3(CCN(C(=O)C4(c5ccccc5)CCCC4)CC3)C2)cc1 (stereo not drawn) has an EC50 of over 39.8 µM (Venezuelan equine encephalitis virus; viral replication).
With CN(C)CCCn1cc(-c2ccccc2)c(-c2ccccc2)n1 the EC50 was over 100 µM (SARS-CoV-2; viral replication, high-content imaging screen; cell-based).
CCc1c(C(=O)C(N)=O)c2c(OCC(=O)O)cccc2n1Cc1ccccc1 has a viability difference of 29.4% (C2C12; 10 µM, added: AP venom; baseline: venom alone).
CC(C)NC(=O)NCC1CCOC2(CCN(C(=O)C3(c4ccccc4)CCCC3)CC2)C1 (stereo not drawn) has an EC50 of over 39.8 µM (Venezuelan equine encephalitis virus; viral replication).
With NC(=O)c1nc(F)c[nH]c1=O the EC50 was 12 µM (influenza A virus; viral replication; MA104, H7N9).
The IC50 of Cn1cnc(Cn2c(=O)[nH]/c(=N\c3cc4cn(C)nc4cc3Cl)n(Cc3cc(F)c(F)cc3F)c2=O)n1 is reported as 81 µM (Cytochrome P450 3A4 (CYP3A4, Homo sapiens, UniProt P08684); inhibitor; human liver microsomes; 30 min preincubation, preincubation with NADPH, added: testosterone 60 µM).
O=C(N1CCC2(CC1)C[C@@H](CN1CCCCS1(=O)=O)CCO2)C1(c2ccccc2)CCCC1 gave an EC50 of over 32 µM (Powassan virus; viral replication).
O=C1c2c(O)c(=O)ccn2N([C@@H]2c3ccccc3SCc3c2ccc(F)c3F)[C@@H]2COCCN12 has an EC50 of 0.00055 ± 4e-05 µM (Influenza A virus; viral replication; A(H9N2) A/environment/Bangladesh/12068/2011; mean).
Cn1cnc(Cn2c(=O)[nH]/c(=N\c3cc4cn(C)nc4cc3Cl)n(Cc3cc(F)c(F)cc3F)c2=O)n1: “treatment-related TEAE, Mild severity” 0% (human, severe renal impairment; oral, 375 mg).
With NC(=O)c1ncn([C@@H]2O[C@H](CO)[C@@H](O)[C@H]2O)n1 the EC50 was 26 µM (influenza A virus; viral replication; A549, H5N1).
The EC50 of Nc1ccc2cc3ccc(N)cc3nc2c1 is reported as over 25.1 µM (SARS-CoV-2; viral replication, high-content imaging screen; cell-based).
The EC50 of O=C(N1CCC2(CC1)CC(CN1CCCCS1(=O)=O)CCO2)C1(c2ccccc2F)CCCC1 (stereo not drawn) is reported as 1.58 µM (Venezuelan equine encephalitis virus; viral replication).
CC[C@@H]1C(=O)N(C)c2cnc(Nc3ccc(C(=O)N[C@H]4CC[C@H](N5CCN(CC6CC6)CC5)CC4)cc3OC)nc2N1C(C)C has an EC50 of over 50.1 µM (SARS-CoV-2; viral replication, high-content imaging screen; cell-based).
With COc1ccccc1-c1cccc(CN2CCCC(C(=O)NCCc3ccc(F)cc3)C2)c1 (stereo not drawn) the maximum response was 70.3% (SARS-CoV-2; cytopathic effect; USA_WA1/2020; round 1, 5-point).
With CN1CCN(CCCN2c3ccccc3Sc3ccccc32)CC1 the EC50 was over 100 µM (SARS-CoV-2; viral replication, high-content imaging screen; cell-based).
With Cc1ccnc(NC2CCOC3(CCN(C(=O)C4(c5ccccc5)CCCC4)CC3)C2)c1 (stereo not drawn) the EC50 was over 39.8 µM (Venezuelan equine encephalitis virus; viral replication).
For Cc1c(-c2ccc(O)cc2)n(Cc2ccc(OCCN3CCCCC3)cc2)c2ccc(O)cc12, the EC50 was 3.63 µM (SARS-CoV-2; viral replication, GFP plate reader screen; cell-based).
For CNC(=O)[C@@H](NC(=O)[C@H](CC(C)C)[C@H](O)C(=O)NO)C(C)(C)C, “remaining fibrinogen Bβ chain” read 0.693 (human fibrinogen; SDS-PAGE; Daboia russelii; concentration not given, unit not given, added: WB venom; baseline: untreated fibrinogen).

Repeated from above:
O=C(N1CCC2(CC1)C[C@@H](CN1CCCCS1(=O)=O)CCO2)C1(c2ccccc2)CCCC1 gave an EC50 of over 32 µM (Powassan virus; viral replication).
With NC(=O)c1nc(F)c[nH]c1=O the EC50 was 12 µM (influenza A virus; viral replication; MA104, H7N9).
CC[C@@H]1C(=O)N(C)c2cnc(Nc3ccc(C(=O)N[C@H]4CC[C@H](N5CCN(CC6CC6)CC5)CC4)cc3OC)nc2N1C(C)C has an EC50 of over 50.1 µM (SARS-CoV-2; viral replication, high-content imaging screen; cell-based).
O=c1ccn([C@@H]2O[C@](F)(CO)[C@@H](O)[C@H]2O)c(=O)[nH]1 gave an EC50 of 1.47 µM (Mammarenavirus lassaense; viral replication; Huh-7).
The inhibition of Nc1ncnc2c([C@@H]3N[C@H](CO)[C@@H](O)[C@H]3O)c[nH]c12 is reported as 0% (Zaire ebolavirus; viral replication, inhibitor; human Macrophage; 12.5 µM).
